Experimental data of several laboratories.
Each numbered part is a random draw from the data of one study; scales do not carry over between parts.

Block 1
Target: Histone acetyltransferase KAT6A, winged helix 1, GST fusion (KAT6A, Homo sapiens, UniProt Q92794, residues 1-85)
Technique: protein binding microarray
Form: double-stranded DNA, one strand shown
Sample: in vitro
Concentration: not given
Notes: 8-mer, flanks averaged, mean of 2 arrays, mostly near background
Reference: not given
Direction: higher = stronger binding
Residues (chain): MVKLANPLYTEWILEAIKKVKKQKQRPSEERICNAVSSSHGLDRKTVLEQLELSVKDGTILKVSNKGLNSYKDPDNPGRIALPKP
Oligonucleotide	E-score
ATGGGTTA	-0.101
GGGTGTAA	-0.0345
TTCATGAA	-0.199
GGCTACCA	-0.0724
GCCCGTAA	0.289
GAAGGAGA	-0.076
CTGTGAGA	-0.156
AAGACCAA	-0.0781
ATGTATTA	-0.148
AAAGCTGT	0.0127
GACAAGGA	-0.194
CGGGCCAC	0.242
CGATCACA	-0.204
ATTCTGCA	-0.223
CTAGTACC	-0.0139
GCGTTAAC	0.26
ACTGCGCC	0.289
ACAGGACA	-0.15
ACGACCAT	-0.267

Block 2
Target: Centromere-binding protein 1, full length, N-terminal tag (CBF1, Saccharomyces cerevisiae, UniProt P17106, residues 1-351)
Chain of UniProt P17106 (whole entry, looked up): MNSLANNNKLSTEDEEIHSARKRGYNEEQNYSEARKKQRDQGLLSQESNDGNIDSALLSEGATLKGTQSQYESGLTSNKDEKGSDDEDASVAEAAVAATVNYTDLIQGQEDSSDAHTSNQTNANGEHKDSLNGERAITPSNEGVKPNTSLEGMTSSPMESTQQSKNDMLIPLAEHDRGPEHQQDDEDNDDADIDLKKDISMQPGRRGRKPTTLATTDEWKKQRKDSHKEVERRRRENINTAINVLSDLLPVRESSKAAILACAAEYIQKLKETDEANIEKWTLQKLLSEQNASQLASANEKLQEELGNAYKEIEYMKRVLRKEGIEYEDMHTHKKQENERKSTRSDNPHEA
Technique: protein-binding microarray
Form: double-stranded DNA, one strand shown
Sample: in vitro
Concentration: 0.8 µM
Notes: whole 60-bp probe, no competitor
Direction: higher = stronger binding
Shared flanks, not repeated: … GTCTTGATTCGCTTGACGCTGCTG
Oligonucleotide	fluorescence intensity
GAACTGAAAGCGGCGCACGAGAACGCGCTTTTCTAG	566 a.u.
GAAGATGGGTCTTGCAACGTGATCTAGTAGATATAG	1730 a.u.
GAAACTAGGCCGCTTCACATGAAATTAGATGTTTAG	513 a.u.
GAATTTCACAATCTTCACGTTCGTTGAAAGCTATAG	528 a.u.
CTAGTAACAAAATAGCACGTCAGGGTTAAGGCGTTC	563 a.u.
GAATATTCTGTTGGTTGCACGTGGTTAGTGTTTTAG	7160 a.u.
CTACATCTTTAAAGGCACGCGATGTACTGTCTTTTC	651 a.u.
CTATGATCCTATATGCGTGTGTTCATACCTCTATTC	543 a.u.
CTACACCATAGGCACCACCACTGTTTGTGTAAATTC	497 a.u.
CTAGTTAATAACTACCATGTGCATGCTACAAAGTTC	886 a.u.
CCTAACTACTATAGTTACGTGTCATAGCTTCGTACA	499 a.u.
GAATGCATGGATTGTGCTGATGTAAGCTGCACGTAG	516 a.u.
GAACAATTGGTGACTACCGTGCCTACTTGCGCCTAG	479 a.u.
CTAGTAACATTCAGATGCGTGCGTCATTTATTCTTC	535 a.u.
CTATTCAACTTATTTAACGTGCCCAATGGAAATTTC	569 a.u.
TGTACGAAGCTATTTTTCATGATTATAGTAGTTAGG	528 a.u.
CTATTGTGAATTCTTCGCGTGGAGTAATTCTAGTTC	569 a.u.
GAAGTGTAGAATCATCACCATCTTCTGTGATAATAG	527 a.u.
CTATGAGGAAAAAATCACGTTAAATAGTTTCATTTC	665 a.u.

Block 3
Target: Sal-like protein 4, full length isoform A (SALL4, Homo sapiens, UniProt Q9UJQ4, residues 1-1053)
Chain of UniProt Q9UJQ4 (whole entry, looked up): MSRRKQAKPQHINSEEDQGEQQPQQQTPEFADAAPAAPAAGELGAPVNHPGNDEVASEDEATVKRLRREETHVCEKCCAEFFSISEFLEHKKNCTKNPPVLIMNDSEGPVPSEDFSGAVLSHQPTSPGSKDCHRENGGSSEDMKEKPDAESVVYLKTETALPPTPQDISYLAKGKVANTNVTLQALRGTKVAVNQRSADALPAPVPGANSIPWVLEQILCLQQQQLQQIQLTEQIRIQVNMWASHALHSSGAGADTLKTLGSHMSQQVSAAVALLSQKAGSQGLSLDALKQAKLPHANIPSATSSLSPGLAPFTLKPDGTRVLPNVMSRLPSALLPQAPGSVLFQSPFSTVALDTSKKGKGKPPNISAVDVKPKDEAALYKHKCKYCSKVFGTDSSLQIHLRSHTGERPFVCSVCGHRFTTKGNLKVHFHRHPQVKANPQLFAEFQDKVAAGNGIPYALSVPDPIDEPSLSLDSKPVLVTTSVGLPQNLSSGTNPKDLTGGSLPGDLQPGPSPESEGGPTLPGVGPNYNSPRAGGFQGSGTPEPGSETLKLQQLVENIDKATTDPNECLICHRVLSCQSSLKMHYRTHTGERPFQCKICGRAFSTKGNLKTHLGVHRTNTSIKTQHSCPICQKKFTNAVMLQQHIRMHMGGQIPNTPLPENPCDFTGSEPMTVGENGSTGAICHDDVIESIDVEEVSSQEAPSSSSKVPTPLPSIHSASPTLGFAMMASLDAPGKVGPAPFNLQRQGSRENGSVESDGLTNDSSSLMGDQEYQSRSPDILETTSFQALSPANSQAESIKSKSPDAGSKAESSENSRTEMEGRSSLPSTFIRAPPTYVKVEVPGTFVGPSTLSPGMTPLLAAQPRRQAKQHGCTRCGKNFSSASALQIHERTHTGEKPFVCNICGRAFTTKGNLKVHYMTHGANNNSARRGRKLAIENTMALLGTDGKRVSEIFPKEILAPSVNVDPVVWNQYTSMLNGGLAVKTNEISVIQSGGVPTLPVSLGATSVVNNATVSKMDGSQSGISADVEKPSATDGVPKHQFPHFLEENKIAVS
Technique: universal PBM
Form: double-stranded DNA, one strand shown
Sample: in vitro
Concentration: 600 nM
Notes: 8-mer, flanks averaged, mean of replicates
Direction: higher = stronger binding
Oligonucleotide	E-score
AACTCCAG	-0.164
ATCTACAA	0.213
TTAGCTAA	0.147
AACAGGAA	0.177
CACGTCCC	-0.3
AACCACTA	0.147
CACAACGC	-0.129
TCTATTAA	0.324
TCGTGTCA	-0.0711
AGATAGTG	0.11
CTTTACAC	0.0254
ATTCGCGA	0.0622
AGACAAGG	-0.236
CCCATCAA	0.0779
CGGGTACC	-0.318
CGGCTACA	-0.103
CCTCTCTC	-0.0717
GAAATATA	0.431
ATCGTTGA	0.0954
ACCCGCGC	-0.306

Block 4
Target: RNA binding protein fox-1 homolog 2, RRM domain, GST-SBP tag (RBFOX2, Homo sapiens, UniProt O43251-10, residues 100-194)
Technique: RNA Bind-n-Seq
Form: RNA
Sample: in vitro
Concentration: 365 nM
Notes: natural RNA segment, single round, ends assumed
Reference: no-protein control
Direction: higher = stronger binding
Shared flanks, not repeated: GGGAGUUCUACAGUCCGACGAUC … UGGAAUUCUCGGGUGCCAA
Construct (chain): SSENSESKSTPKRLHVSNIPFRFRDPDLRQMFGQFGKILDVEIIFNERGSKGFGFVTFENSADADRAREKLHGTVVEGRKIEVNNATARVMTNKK
Oligonucleotide	RBNS enrichment (R)
GCUCAGCAAGCCUUCUAAAAAGACUUCCCUUUUCUUGGGGUAUGGCUGUCUCAGCACAAUACUCGACAUAACUGCAGAGCUGAUGUGGCUCAGGCACCCUGGUUUUAAUC	0.436
AUAGUCAAAAUCCAGCCCUCCACAGACACUCCCCAGGACCUGGGGAGGGAAGGGAUUUUGAGUCACAUUAGCCUCAGGUUAGUGUUUGGCUCCAGUAAUAUCUUGCCCGA	0.288
CUGAAAUGCGUGCUCCCACCAAGGCCAGAGACCCACAGCCCCAAGACAAGAAGUGCCCUUAUAAACCCCUGCAGCCCUGCAGCCCUGAAAUAAAUUUUGCAAUUAGUUUC	0.585
UCAUCCGUUUUUAAUUAUUUUAACUGACCCUUGACAAUCUUGUCAGCAAUAUAGGACUGUUGAACAAUCCCGGUGUGUCAGGACCCCCAAAUGUCACUUCUGCAUAAAGC	0.8
AAGUUUUGAAAUGCUGCACUUACAUUUAAAAAAAAACAUUUUUCAACAAUUUCAACAAUGACACAAAAAUUCACAUGGAAAUGGGGAAGAUGGUCUGUUUUGACAGAAAC	0.74
UCUAUCUGUCCUGUUCUCUGUUAUCUCCAAGUCCUGAUUCUGUUGCCUCCAGCCCGAGCCUCCUCUCCUCUUCUCUCCCGAGACACAGCCUCACCCGUCAUUUCAUUCUC	0.82
UUUAGAGUAAUUAUUUUAAGCAAAUAGCCUGGACGUAAGAGAUUCUCAUGCCAGCAUGCUUUCAUUUGUCAGUUGUUGUGACUGAGAGAUAAUGAAUGACACCUGAAAUG	1.38
AGCAGCACCUGUGGUCUGGCCUCUGCCUUGCCCUCAUGCAGCCAUGAGCUGCCUUAAGGGGAAGAGUGCCAAUGGUCUUCGUGGACUUCAGAAGUGACUUUGAGACUGUU	1.31

Single results of other studies
Substance	target	test	system	conditions	how to read	quantity	value
PhoQ, residues 284 288 289 292 302 303 ASSHFY	PhoP, residues 12 14 15 18 19 AQCLL (Escherichia coli, UniProt P23836)	Sort-seq, measured: YFP reporter	E. coli	PhoQ-PhoP variant library, added: 10 µM Mg2+	reference: high Mg2+ state, higher = stronger signaling	fold induction	1.9

Some of these lines once more (block 2):
Oligonucleotide	fluorescence intensity
GAACAATTGGTGACTACCGTGCCTACTTGCGCCTAG	479 a.u.
CTAGTAACATTCAGATGCGTGCGTCATTTATTCTTC	535 a.u.
CTATTCAACTTATTTAACGTGCCCAATGGAAATTTC	569 a.u.
TGTACGAAGCTATTTTTCATGATTATAGTAGTTAGG	528 a.u.
CTATTGTGAATTCTTCGCGTGGAGTAATTCTAGTTC	569 a.u.
GAAGTGTAGAATCATCACCATCTTCTGTGATAATAG	527 a.u.
CTATGAGGAAAAAATCACGTTAAATAGTTTCATTTC	665 a.u.
